{"data": "Assay results pooled from the literature", "rep main protease": "Replicase polyprotein 1ab, main protease (rep, Severe acute respiratory syndrome coronavirus 2, UniProt P0DTD1)", "note": "Compare with care: the assays were run in different laboratories. ± gives the spread as reported."}
{"Molecule": "Nc1ncnc2c([C@@H]3N[C@H](CO)[C@@H](O)[C@H]3O)c[nH]c12", "tested on": "Marburg marburgvirus", "test": "virus production", "test system": "HeLa, Musoke", "setting": "100 µM", "endpoint": "inhibition", "value": "100%"}
{"Molecule": "CNC(=O)[C@@H](NC(=O)[C@H](CC(C)C)[C@H](O)C(=O)NO)C(C)(C)C", "tested on": "C2C12", "setting": "1 µM, with: GA venom", "scale": "reference: venom alone", "endpoint": "viability difference", "value": "4.99%"}
{"Molecule": "NC(=O)CCNC(=O)c1ccccc1S", "tested on": "HIV-1", "test": "viral replication", "test system": "human PBMC, subtype F 93BR020, dual-tropic clinical isolate", "endpoint": "EC50", "value": "3.46 ± 1.85 µM"}
{"Molecule": "CC(C)(C#Cc1ccc(-c2ccc(Cl)c3c(NS(C)(=O)=O)nn(CC(F)(F)F)c23)c([C@H](CC2CC2)NC(=O)Cn2nc(C(F)(F)F)c3c2C(F)(F)[C@@H]2C[C@H]32)n1)S(C)(=O)=O", "tested on": "HIV-1", "test": "viral replication", "endpoint": "EC50", "value": "0.0157 ± 0.012 µM"}
{"Molecule": "C[C@@]1(c2cc(-c3cncnc3)c(F)cc2F)CCSC(N)=N1", "tested on": "rep main protease", "test": "reporter gene (Gaussia luciferase), inhibitor", "setting": "20 µM", "endpoint": "inhibition", "value": "2.09%"}
{"Molecule": "Cc1cc(/C=C/C#N)cc(C)c1Nc1nc(Nc2ccc3cc(C#N)ccc3c2)ncc1N", "tested on": "HIV-1", "test": "viral replication, single-round infection", "test system": "RT mutant K101P/V179I", "endpoint": "EC50", "value": "0.308 ± 0.0566 µM"}
{"Molecule": "Cc1cc(C#N)cc(C)c1Oc1nc(Nc2ccc(C#N)cc2)nc(N)c1Br", "tested on": "HIV-1", "test": "viral replication", "test system": "MT4, RES056 K103N+Y181C", "endpoint": "EC50", "value": "0.0379 ± 0.0016 µM"}
{"Molecule": "Nc1c(C(=O)NCc2ccc(F)cc2F)c(=O)n(O)c2ncc(CCS(=O)(=O)c3ccccc3)cc12", "tested on": "HIV-1", "test": "viral replication, single-round infectivity", "test system": "integrase G140S/Q148H", "endpoint": "EC50", "value": "0.0052 ± 0.0003 µM"}
{"Molecule": "CCCC(=O)OCSc1ccccc1C(=O)NCCC(N)=O", "tested on": "HIV-1", "test": "viral replication", "test system": "human PBMC, subtype D 92UG024, CXCR4-tropic clinical isolate", "endpoint": "EC50", "value": "1.32 ± 0.83 µM"}
{"Molecule": "Cn1c(Cn2ccc(C(F)(F)F)c(Oc3cc(Cl)cc(C#N)c3)c2=O)n[nH]c1=O", "tested on": "HIV-1", "test": "viral replication, single-round infection", "test system": "RT mutant P236L", "endpoint": "EC50", "value": "0.002 ± 0.0007 µM"}
{"Molecule": "CNC(=O)[C@H](Cc1ccccc1)NC(=O)[C@H](CC(C)C)[C@H](CSc1cccs1)C(=O)NO", "tested on": "rep main protease", "test": "reporter gene (mKate2), inhibitor", "setting": "20 µM", "endpoint": "inhibition", "value": "0.192%"}
{"Molecule": "Cn1cnc(Cn2c(=O)[nH]/c(=N\\c3cc4cn(C)nc4cc3Cl)n(Cc3cc(F)c(F)cc3F)c2=O)n1", "test system": "human, severe renal impairment", "setting": "oral, 375 mg", "endpoint": "any TEAE, moderate severity", "value": "0%"}
{"Molecule": "Cc1cn([C@H]2C[C@H](N=[N+]=[N-])[C@@H](CO)O2)c(=O)[nH]c1=O", "tested on": "HIV-1", "test": "viral replication", "test system": "human PBMC, group O BCF01, CCR5-tropic clinical isolate", "endpoint": "EC50", "value": "0.00237 ± 8e-05 µM"}
{"Molecule": "Nc1c(C(=O)NCc2ccc(F)cc2F)c(=O)n(O)c2ncc(CCCCCO)cc12", "tested on": "HIV-1", "test": "viral replication, single-round infectivity", "test system": "integrase G140S/Q148H", "endpoint": "EC50", "value": "~0.007 µM"}
{"Molecule": "Cc1cc(/C=C/C#N)cc(C)c1-n1cnc2cnc(Nc3ccc(/C=C/C#N)cc3)nc21", "tested on": "HIV-1", "test": "viral replication, single-round infection", "test system": "RT mutant K101P/V179I", "endpoint": "EC50", "value": "0.552 ± 0.0867 µM"}
{"Molecule": "CC(C)(C#Cc1ccc(-c2ccc(Cl)c3c(NS(C)(=O)=O)nn(CC(F)(F)F)c23)c([C@H](CC2CCCCC2)NC(=O)Cn2nc(C(F)(F)F)c3c2C(F)(F)[C@H]2C[C@@H]32)n1)S(C)(=O)=O", "tested on": "HIV-1", "test": "viral replication", "endpoint": "EC50", "value": "0.203 ± 0.049 µM"}
{"Molecule": "O=C1Nc2ccc(Cl)cc2[C@@](C#CC2CC2)(C(F)(F)F)O1", "tested on": "HIV-1", "test": "viral replication, single-round infection", "test system": "RT mutant E40K", "endpoint": "EC50", "value": "0.0003 ± 2e-05 µM"}
{"Molecule": "CC(C)(C#Cc1ccc(-c2ccc(Cl)c3c(NS(C)(=O)=O)nn(CC(F)(F)F)c23)c([C@@H](CC2CCCC2)NC(=O)Cn2nc(C(F)(F)F)c3c2C(F)(F)[C@H]2C[C@@H]32)n1)S(C)(=O)=O", "tested on": "HIV-1", "test": "viral replication", "endpoint": "EC50", "value": "4 ± 0.09 µM"}
{"Molecule": "Nc1c(C(=O)NCc2ccc(F)cc2F)c(=O)n(O)c2ncc(CCCO)cc12", "tested on": "HIV-1", "test": "viral replication, single-round infectivity", "test system": "integrase G140S/Q148H", "endpoint": "EC50", "value": "0.0134 ± 0.0065 µM"}
{"Molecule": "Cc1cc(/C=C/C#N)cc(C)c1Nc1nc(Nc2ccc(/C=C/C#N)cc2)ncc1N", "tested on": "HIV-1", "test": "viral replication, single-round infection", "test system": "RT mutant G190S", "endpoint": "EC50", "value": "0.0002 ± 6e-05 µM"}
{"Molecule": "delavirdine", "tested on": "HIV-1", "test": "viral replication", "test system": "MT-2, A17 (Y181C/K103N), NNRTI-resistant", "endpoint": "EC50", "value": "> 3.7 µM"}
{"Molecule": "CC[C@H](C)[C@H](NC(=O)[C@H](CC(C)C)NC(=O)[C@H](Cc1c[nH]c2ccccc12)NC(=O)[C@H](CCC(N)=O)NC(=O)[C@@H](NC(=O)[C@H](Cc1ccccc1)NC(=O)[C@H](C)NC(=O)[C@H](CCCCNC(=O)COCCOCCNC(=O)COCCOCCNC(=O)CC[C@H](NC(=O)CCCCCCCCCCCCCCCCCCC(=O)O)C(=O)O)NC(=O)[C@H](CCC(N)=O)NC(=O)[C@H](C)NC(=O)[C@@H](NC(=O)[C@H](CCCCN)NC(=O)[C@H](CC(=O)O)NC(=O)[C@H](CC(C)C)NC(=O)C(C)(C)NC(=O)[C@@H](NC(=O)[C@H](CO)NC(=O)[C@H](Cc1ccc(O)cc1)NC(=O)[C@H](CC(=O)O)NC(=O)[C@H](CO)NC(=O)[C@@H](NC(=O)[C@H](Cc1ccccc1)NC(=O)[C@@H](NC(=O)CNC(=O)[C@H](CCC(=O)O)NC(=O)C(C)(C)NC(=O)[C@@H](N)Cc1ccc(O)cc1)[C@@H](C)O)[C@@H](C)O)[C@@H](C)CC)[C@@H](C)CC)C(C)C)C(=O)N[C@@H](C)C(=O)NCC(=O)NCC(=O)N1CCC[C@H]1C(=O)N[C@@H](CO)C(=O)N[C@@H](CO)C(=O)NCC(=O)N[C@@H](C)C(=O)N1CCC[C@H]1C(=O)N1CCC[C@H]1C(=O)N1CCC[C@H]1C(=O)N[C@@H](CO)C(N)=O", "test system": "healthy subjects, single ascending dose", "setting": "8.0 mg, baseline", "endpoint": "serum lipase", "value": "38.1 ± 19.4 U/L"}
{"note": "A few entries again:"}
{"Molecule": "CCCC(=O)OCSc1ccccc1C(=O)NCCC(N)=O", "tested on": "HIV-1", "test": "viral replication", "test system": "human PBMC, subtype D 92UG024, CXCR4-tropic clinical isolate", "endpoint": "EC50", "value": "1.32 ± 0.83 µM"}
{"Molecule": "CC(C)(C#Cc1ccc(-c2ccc(Cl)c3c(NS(C)(=O)=O)nn(CC(F)(F)F)c23)c([C@H](CC2CC2)NC(=O)Cn2nc(C(F)(F)F)c3c2C(F)(F)[C@@H]2C[C@H]32)n1)S(C)(=O)=O", "tested on": "HIV-1", "test": "viral replication", "endpoint": "EC50", "value": "0.0157 ± 0.012 µM"}
